# Measurements pooled from the literature.
# Parts stem from different laboratories: compare values within a part only. “And” joins repeats or separate records; there may be more than shown.
# UniProt P09769, sequence (whole entry, looked up): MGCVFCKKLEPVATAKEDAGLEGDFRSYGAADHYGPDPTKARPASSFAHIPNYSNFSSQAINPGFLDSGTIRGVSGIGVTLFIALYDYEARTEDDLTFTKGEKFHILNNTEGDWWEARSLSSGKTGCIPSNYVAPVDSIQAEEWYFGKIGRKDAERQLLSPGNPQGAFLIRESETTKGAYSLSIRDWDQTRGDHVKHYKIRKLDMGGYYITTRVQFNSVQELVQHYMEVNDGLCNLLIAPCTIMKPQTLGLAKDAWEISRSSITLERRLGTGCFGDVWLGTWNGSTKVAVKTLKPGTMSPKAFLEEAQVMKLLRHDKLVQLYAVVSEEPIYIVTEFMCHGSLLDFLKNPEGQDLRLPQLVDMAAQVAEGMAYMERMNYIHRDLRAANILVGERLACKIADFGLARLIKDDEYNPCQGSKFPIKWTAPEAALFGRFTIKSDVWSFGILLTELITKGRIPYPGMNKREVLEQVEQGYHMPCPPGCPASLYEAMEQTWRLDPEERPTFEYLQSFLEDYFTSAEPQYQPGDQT
# UniProt Q8TBX8, sequence (whole entry, looked up): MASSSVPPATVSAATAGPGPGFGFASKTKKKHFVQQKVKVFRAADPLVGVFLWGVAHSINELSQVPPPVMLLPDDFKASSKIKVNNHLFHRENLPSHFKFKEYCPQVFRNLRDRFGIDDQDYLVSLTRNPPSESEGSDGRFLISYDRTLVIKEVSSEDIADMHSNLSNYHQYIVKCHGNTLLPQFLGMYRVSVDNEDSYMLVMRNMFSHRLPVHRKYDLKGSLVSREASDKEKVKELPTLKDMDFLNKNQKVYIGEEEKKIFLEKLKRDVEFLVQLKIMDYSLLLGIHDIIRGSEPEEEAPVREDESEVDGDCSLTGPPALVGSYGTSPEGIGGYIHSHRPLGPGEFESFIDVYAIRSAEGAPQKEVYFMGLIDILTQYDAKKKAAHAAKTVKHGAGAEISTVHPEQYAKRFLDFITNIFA
# UniProt Q15569, sequence (whole entry, looked up): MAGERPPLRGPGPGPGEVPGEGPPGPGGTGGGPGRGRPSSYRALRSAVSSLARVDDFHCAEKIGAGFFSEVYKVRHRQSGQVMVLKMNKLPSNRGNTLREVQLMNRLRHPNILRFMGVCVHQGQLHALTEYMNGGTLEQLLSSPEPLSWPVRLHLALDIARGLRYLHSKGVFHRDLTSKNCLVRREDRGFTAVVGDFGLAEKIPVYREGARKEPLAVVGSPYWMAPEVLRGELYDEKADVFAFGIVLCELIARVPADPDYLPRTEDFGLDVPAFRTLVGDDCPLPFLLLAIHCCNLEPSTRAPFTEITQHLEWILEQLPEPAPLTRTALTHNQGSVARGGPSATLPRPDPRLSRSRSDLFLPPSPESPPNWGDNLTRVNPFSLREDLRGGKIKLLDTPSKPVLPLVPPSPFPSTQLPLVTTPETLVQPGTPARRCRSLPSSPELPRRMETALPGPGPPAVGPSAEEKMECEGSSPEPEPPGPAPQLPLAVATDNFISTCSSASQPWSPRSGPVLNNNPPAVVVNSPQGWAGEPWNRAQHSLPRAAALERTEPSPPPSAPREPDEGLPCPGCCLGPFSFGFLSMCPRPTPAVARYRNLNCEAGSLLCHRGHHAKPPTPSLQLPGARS
# UniProt P22607, sequence (whole entry, looked up): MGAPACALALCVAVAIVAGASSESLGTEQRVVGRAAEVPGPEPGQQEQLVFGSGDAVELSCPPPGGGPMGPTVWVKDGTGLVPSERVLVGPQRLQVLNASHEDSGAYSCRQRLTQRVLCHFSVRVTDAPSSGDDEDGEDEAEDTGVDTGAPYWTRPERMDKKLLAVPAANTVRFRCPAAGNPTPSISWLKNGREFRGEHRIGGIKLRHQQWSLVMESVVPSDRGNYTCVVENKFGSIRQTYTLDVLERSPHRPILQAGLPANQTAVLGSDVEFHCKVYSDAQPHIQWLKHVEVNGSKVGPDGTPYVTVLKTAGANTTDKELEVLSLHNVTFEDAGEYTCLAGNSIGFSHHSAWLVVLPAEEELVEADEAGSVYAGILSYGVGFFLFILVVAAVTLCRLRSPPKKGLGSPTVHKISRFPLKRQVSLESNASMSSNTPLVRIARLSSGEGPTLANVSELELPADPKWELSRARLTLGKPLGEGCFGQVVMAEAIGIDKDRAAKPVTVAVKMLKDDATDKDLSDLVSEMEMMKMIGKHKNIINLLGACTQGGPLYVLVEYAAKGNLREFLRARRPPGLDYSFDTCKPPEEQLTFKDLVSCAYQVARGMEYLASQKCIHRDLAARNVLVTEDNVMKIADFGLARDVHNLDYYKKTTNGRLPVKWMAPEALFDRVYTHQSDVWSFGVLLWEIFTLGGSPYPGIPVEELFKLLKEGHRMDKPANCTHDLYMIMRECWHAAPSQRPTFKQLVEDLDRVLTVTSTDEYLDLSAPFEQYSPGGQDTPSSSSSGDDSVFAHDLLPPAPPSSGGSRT
# UniProt P16234, sequence (whole entry, looked up): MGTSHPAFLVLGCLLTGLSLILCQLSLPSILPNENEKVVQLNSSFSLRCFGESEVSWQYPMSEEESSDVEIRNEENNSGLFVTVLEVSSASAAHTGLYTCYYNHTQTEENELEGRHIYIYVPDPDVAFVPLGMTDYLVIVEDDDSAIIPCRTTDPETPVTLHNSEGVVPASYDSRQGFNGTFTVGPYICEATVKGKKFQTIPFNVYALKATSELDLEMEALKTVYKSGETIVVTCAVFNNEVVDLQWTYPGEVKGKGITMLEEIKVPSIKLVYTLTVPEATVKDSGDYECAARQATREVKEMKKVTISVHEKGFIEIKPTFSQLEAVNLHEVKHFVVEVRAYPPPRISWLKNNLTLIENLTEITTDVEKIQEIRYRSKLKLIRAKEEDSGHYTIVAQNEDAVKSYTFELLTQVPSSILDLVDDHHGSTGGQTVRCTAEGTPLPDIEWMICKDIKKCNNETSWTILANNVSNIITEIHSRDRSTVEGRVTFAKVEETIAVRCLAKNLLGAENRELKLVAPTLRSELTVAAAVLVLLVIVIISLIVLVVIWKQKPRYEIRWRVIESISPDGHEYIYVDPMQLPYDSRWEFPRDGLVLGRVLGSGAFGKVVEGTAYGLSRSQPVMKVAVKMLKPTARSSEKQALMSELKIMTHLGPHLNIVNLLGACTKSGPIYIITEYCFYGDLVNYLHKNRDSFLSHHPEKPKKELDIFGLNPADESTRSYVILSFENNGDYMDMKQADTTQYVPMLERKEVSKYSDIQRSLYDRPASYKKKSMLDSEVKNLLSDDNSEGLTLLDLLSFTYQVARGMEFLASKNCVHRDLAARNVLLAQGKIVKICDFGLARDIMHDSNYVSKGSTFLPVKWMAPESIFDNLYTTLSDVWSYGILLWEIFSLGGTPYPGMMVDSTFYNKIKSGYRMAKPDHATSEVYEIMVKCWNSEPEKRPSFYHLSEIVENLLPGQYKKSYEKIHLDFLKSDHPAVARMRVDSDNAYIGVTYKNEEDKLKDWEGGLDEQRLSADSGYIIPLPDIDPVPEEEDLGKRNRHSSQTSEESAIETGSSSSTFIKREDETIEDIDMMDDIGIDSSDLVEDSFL
# UniProt P51955, sequence (whole entry, looked up): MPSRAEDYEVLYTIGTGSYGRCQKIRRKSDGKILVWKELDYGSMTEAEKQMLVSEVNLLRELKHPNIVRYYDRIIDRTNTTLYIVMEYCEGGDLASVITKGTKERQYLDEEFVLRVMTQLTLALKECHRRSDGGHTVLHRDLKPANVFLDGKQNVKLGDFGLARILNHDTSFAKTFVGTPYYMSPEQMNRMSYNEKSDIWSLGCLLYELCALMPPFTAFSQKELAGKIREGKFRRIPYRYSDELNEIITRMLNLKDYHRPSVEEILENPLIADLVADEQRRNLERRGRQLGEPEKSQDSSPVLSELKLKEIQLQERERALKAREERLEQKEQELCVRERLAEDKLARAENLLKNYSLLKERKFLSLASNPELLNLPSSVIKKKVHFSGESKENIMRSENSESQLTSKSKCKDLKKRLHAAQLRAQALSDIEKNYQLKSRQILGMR
# UniProt O15075, sequence (whole entry, looked up): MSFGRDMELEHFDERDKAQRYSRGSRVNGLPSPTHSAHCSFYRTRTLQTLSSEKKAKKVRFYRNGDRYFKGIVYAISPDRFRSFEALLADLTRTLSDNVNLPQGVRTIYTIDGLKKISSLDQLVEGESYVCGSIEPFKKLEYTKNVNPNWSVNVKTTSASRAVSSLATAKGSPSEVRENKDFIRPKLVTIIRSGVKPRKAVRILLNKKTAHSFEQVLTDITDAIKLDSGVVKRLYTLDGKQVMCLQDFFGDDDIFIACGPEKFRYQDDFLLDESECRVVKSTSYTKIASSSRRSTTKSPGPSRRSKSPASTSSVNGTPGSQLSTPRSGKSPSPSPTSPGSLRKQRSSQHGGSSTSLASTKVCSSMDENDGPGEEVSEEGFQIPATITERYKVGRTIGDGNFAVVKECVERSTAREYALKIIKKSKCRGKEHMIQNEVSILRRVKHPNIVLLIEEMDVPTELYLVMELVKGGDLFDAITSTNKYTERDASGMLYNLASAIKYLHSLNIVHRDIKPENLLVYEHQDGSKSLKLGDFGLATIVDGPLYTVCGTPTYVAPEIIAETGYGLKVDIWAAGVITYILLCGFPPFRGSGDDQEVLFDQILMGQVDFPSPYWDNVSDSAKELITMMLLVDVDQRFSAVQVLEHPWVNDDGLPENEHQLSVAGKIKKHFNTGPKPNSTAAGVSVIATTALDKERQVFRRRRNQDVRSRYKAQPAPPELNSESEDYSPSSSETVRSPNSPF
# UniProt Q8IU85, sequence (whole entry, looked up): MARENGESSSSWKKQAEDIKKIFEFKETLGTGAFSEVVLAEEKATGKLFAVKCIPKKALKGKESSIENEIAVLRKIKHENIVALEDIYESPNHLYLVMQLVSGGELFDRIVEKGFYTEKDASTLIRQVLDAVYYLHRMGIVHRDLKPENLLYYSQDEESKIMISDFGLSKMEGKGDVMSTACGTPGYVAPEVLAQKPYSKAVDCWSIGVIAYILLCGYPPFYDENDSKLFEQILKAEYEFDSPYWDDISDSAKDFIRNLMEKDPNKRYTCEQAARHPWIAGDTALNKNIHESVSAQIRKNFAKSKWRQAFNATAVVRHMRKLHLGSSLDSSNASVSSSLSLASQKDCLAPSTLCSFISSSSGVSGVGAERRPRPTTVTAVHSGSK

# Set 1
# Target: Serine/threonine-protein kinase Sgk2 (SGK2, Homo sapiens, UniProt Q9HBY8)
# Read-out: enzyme activity
# Mode: inhibitor
# Concentration: 0.5 µM
# Relative to: control
# Construct (Q9HBY8 1-367): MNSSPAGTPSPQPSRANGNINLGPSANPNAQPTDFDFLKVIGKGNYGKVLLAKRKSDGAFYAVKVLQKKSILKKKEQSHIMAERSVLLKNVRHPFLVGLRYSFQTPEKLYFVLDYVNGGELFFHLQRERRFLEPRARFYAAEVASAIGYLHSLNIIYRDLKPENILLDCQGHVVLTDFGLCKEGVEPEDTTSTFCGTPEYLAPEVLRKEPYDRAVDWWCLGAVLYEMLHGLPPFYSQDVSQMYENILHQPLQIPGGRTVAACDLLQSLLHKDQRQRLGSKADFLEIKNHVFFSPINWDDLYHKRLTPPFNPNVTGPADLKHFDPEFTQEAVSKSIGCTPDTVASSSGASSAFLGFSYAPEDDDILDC
SMILES,remaining activity
O=C1c2ccccc2-c2n[nH]c3cccc1c23,85.1%
COc1cc2ncnc(Nc3cccc(Cl)c3)c2cc1OC,97.8%
Cc1cc2ncc(-c3ccccc3)nc2cc1C,101%
CCN(CC)C(=O)c1ccc(Nc2nc(OCC3CCCCC3)c3[nH]cnc3n2)cc1,94.4%
c1ccc(-c2cnc(Nc3ccc(OCCN4CCCC4)cc3)s2)cc1,101%
O=C(NC(NC(=S)Nc1ccc(F)c([N+](=O)[O-])c1)C(Cl)(Cl)Cl)C(c1ccccc1)c1ccccc1 (stereo not shown),119%
c1ccc(-c2[nH]ncc2-c2ccnc3ccccc23)nc1,101%

# Set 2
# Cell line: A-375
# Concentration: 100 µM
# Time: 36 h
SMILES,viability
OCCN1CCN(CC/C=C2/c3ccccc3Sc3ccc(C(F)(F)F)cc32)CC1,1.1%
C[C@H]1[C@H](OC(=O)CCC(=O)O)O[C@@H]2O[C@@]3(C)CC[C@H]4[C@H](C)CC[C@@H]1[C@@]24OO3,34.4%
CN1CCC[C@@H]1Cc1c[nH]c2ccc(CCS(=O)(=O)c3ccccc3)cc12,95.5%
O=C1O[C@H]([C@@H](O)CO)C(O)=C1O,107%

# Set 3
# Cell line: mouse MPNST tumor cells
# Method: high-content immunofluorescence imaging
# Item: nuclear SOX9
# Concentration: 10 µM
# Time: 12 h
# Notes: mean of 2 replicates
# Relative to: DMSO control
# Direction: higher = more nuclear SOX9
SMILES,nuclear SOX9 intensity
CCOC(=O)c1ccc(N(C)c2csc(-c3ccccc3)n2)cc1,99.6 % of DMSO
O=C(NC[C@H](O)CN1CCc2ccccc2C1)c1ccnc(NC2CCC2)c1,97.7 % of DMSO and 99.6 % of DMSO
O=C(O)C1=CCCN(CCON=C(c2ccccc2)c2ccccc2)C1,104 % of DMSO

# Set 4
# SMILES: C[C@@]1(Cc2ccc(C#N)cc2)C(=O)N(c2cc(Cl)cc(Cl)c2)c2ncc(C(=O)NC3(c4nc(C5CCC5)no4)CC3)n21
# Read-out: cell-free assay
# Method: competition with immobilised ligand
# Concentration: 1 µM
target,remaining binding
"Phosphatidylinositol 5-phosphate 4-kinase type-2 gamma (PIP4K2C, Homo sapiens, UniProt Q8TBX8)",100%
"Serine/threonine-protein kinase RIO1 (RIOK1, Homo sapiens, UniProt Q9BRS2)",100%
"eIF-2-alpha kinase GCN2, C-terminal kinase domain (EIF2AK4, Homo sapiens, UniProt Q9P2K8, S808G)",100%
"Serine/threonine-protein kinase DCLK1 (DCLK1, Homo sapiens, UniProt O15075)",100%
"Dual specificity testis-specific protein kinase 1 (TESK1, Homo sapiens, UniProt Q15569)",100%
"Fibroblast growth factor receptor 3 (FGFR3, Homo sapiens, UniProt P22607)",100%
"Platelet-derived growth factor receptor alpha (PDGFRA, Homo sapiens, UniProt P16234)",100%
"Serine/threonine-protein kinase WNK1 (WNK1, Homo sapiens, UniProt Q9H4A3)",99%
"Calcium/calmodulin-dependent protein kinase type 1D (CAMK1D, Homo sapiens, UniProt Q8IU85)",100%
"Tyrosine-protein kinase Fgr (FGR, Homo sapiens, UniProt P09769)",100%
"Serine/threonine-protein kinase ULK1 (ULK1, Homo sapiens, UniProt O75385)",100%
"Cyclin-dependent kinase-like 2 (CDKL2, Homo sapiens, UniProt Q92772)",100%
"Serine/threonine-protein kinase BRSK2 (BRSK2, Homo sapiens, UniProt Q8IWQ3)",100%
"Tyrosine-protein kinase ABL1, phosphorylated (ABL1, Homo sapiens, UniProt P00519, H396P)",96%
"Serine/threonine-protein kinase Nek2 (NEK2, Homo sapiens, UniProt P51955)",83%

# Further values, each from its own experiment
Structure (SMILES),target or system,system,setting,how to read,measurement,result
COCc1cc(C(=O)Nc2cc([C@H]3CC[C@@H](OC(=O)NC(C)C)C3)[nH]n2)n(C)n1,NCI-H1048,,"concentration not given, 6 days, together with: CDK2 inhibitor 500 nM",relative to: DMSO,cell count,0.345 and 0.306 and 0.294
CCC[C@H]1NC(=O)CSC[C@@H](C(=O)OCC)N(C)C(=O)[C@H](CC(C)C)NC(=O)[C@H](C)N(C)C(=O)[C@@H](CC(C)C)NC(=O)[C@H](C)N(C)C(=O)[C@@H]2CCCN2C(=O)[C@@H](CC(C)C)NC(=O)CN(C)C1=O,,hydrocarbon/water,,,logD,0.37

# Repeated from above (set 1):
SMILES,remaining activity
CCN(CC)C(=O)c1ccc(Nc2nc(OCC3CCCCC3)c3[nH]cnc3n2)cc1,94.4%
c1ccc(-c2cnc(Nc3ccc(OCCN4CCCC4)cc3)s2)cc1,101%
